Assay results of several laboratories.
Protocols differ between the studies behind these lines. ± gives the spread as reported.
Receptor-type tyrosine-protein phosphatase alpha residues 224-802: Receptor-type tyrosine-protein phosphatase alpha, residues 224-802 (Homo sapiens, UniProt P18433)
FURIN: Furin (FURIN, Homo sapiens, UniProt P09958)
HLA class I histocompatibility antigen, A alpha chain allele A*80:01: HLA class I histocompatibility antigen, A alpha chain, allele A*80:01 (Homo sapiens, UniProt P04439)
MCA2: Metacaspase-2 (MCA2, Trypanosoma brucei brucei, UniProt Q585F3)
PTPN1: Tyrosine-protein phosphatase non-receptor type 1 (PTPN1, Homo sapiens, UniProt P18031)

Amino acid sequences for entries named in this document (tags omitted). Residues count along the entry.
UniProt P18433, 224-802 limits assumed: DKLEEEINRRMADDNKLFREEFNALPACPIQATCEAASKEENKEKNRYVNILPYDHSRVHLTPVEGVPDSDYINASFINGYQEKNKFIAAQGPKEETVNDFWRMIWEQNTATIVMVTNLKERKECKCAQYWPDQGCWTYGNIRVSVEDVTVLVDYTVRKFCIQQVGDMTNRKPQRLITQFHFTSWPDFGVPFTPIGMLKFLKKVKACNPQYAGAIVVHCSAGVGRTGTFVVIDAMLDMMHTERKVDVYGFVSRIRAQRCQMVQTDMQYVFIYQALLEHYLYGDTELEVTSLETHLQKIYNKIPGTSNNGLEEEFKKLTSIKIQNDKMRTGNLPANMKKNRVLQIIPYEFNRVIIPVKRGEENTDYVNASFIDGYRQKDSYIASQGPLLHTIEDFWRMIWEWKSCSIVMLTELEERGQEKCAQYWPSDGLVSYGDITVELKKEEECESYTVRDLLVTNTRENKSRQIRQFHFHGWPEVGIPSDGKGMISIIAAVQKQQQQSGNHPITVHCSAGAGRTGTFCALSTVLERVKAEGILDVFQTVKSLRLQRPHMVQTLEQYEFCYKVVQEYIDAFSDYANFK
UniProt P09958, whole entry, looked up: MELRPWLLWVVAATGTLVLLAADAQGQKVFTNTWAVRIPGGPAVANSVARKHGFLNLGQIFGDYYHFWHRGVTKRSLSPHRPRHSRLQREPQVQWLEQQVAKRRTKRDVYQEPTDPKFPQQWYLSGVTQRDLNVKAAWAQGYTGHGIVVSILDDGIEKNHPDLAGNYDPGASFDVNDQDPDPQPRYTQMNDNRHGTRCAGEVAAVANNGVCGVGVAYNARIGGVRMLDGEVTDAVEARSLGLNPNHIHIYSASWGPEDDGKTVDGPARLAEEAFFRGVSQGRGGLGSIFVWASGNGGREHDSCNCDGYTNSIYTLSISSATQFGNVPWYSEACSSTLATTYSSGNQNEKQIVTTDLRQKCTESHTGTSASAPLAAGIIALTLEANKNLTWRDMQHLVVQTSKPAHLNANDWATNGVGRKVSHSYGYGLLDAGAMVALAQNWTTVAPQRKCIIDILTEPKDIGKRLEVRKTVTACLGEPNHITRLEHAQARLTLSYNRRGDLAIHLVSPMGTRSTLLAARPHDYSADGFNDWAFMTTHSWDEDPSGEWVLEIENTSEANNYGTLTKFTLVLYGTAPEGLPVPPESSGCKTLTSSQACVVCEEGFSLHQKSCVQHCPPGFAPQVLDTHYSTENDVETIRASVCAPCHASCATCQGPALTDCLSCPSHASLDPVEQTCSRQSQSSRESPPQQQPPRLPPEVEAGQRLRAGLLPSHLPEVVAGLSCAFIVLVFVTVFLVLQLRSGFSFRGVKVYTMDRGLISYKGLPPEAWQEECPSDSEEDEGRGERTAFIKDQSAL
UniProt Q585F3, whole entry, looked up: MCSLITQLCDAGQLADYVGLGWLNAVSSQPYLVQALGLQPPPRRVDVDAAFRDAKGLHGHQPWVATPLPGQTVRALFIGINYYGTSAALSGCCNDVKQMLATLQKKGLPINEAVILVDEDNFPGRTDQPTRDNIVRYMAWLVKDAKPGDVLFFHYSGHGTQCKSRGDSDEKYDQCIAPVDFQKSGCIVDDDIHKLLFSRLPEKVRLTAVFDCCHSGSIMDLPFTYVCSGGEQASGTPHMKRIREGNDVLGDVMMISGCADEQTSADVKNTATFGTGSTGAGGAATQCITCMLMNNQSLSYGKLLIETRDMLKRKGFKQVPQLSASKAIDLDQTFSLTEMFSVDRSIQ
UniProt P18031, 1-321 limits assumed: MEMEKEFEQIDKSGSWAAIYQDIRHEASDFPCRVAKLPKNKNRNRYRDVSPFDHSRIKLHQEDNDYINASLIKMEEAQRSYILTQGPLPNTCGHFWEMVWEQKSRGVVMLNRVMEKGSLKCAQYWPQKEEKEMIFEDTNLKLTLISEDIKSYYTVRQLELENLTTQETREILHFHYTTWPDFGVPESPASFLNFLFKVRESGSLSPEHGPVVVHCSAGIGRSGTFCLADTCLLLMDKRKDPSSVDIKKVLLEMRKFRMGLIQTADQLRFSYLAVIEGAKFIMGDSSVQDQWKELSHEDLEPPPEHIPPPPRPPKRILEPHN
UniProt Q99816, whole entry, looked up: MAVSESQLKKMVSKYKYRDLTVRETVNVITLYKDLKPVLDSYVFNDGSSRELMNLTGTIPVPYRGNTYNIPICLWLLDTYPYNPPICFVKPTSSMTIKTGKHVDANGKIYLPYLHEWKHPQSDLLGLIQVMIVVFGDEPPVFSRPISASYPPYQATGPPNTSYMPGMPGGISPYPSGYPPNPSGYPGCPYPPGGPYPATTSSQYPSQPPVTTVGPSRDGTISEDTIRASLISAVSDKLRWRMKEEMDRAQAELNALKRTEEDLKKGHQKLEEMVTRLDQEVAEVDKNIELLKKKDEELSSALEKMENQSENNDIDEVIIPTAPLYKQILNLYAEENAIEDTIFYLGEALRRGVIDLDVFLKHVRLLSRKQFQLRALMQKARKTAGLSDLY
UniProt Q13133, whole entry, looked up: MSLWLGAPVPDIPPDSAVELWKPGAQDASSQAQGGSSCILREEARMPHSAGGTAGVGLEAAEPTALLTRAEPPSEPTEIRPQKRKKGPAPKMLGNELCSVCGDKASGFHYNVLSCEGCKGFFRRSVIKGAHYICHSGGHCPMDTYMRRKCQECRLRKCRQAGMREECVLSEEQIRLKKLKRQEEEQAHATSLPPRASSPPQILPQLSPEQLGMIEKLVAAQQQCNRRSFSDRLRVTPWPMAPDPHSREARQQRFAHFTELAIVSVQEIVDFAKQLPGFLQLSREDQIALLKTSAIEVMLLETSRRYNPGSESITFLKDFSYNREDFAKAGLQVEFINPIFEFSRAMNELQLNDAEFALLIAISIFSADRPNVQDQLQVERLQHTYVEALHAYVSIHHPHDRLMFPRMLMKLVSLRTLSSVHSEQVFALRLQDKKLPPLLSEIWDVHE
UniProt P46098, 24-478 limits assumed: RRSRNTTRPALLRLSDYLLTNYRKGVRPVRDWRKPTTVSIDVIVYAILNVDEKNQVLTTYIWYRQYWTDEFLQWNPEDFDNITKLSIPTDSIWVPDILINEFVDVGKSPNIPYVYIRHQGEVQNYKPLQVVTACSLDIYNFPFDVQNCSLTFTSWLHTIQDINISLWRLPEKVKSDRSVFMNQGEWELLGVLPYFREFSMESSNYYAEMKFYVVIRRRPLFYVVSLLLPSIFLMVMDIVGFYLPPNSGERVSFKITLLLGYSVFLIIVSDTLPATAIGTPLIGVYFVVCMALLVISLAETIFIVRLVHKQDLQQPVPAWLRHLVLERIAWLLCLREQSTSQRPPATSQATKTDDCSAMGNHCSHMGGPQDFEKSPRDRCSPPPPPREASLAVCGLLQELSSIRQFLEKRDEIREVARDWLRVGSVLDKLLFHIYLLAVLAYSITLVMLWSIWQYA

SMILES | target | assay | test system | conditions | scale | quantity | value
CC(=O)N[C@@H](CO)C(=O)N[C@@H](C)C(=O)N[C@@H](CO)C(=O)N[C@@H](C)C(=O)N[C@@H](CO)C(=O)N[C@@H](Cc1ccc(OP(=O)(O)O)cc1)C(=O)N[C@@H](CO)C(=O)N[C@@H](C)C(=O)N[C@@H](CO)C(=O)N[C@@H](C)C(N)=O | Receptor-type tyrosine-protein phosphatase alpha residues 224-802 | phosphatase activity, substrate | – | pH 7.4, added: phosphotyrosine peptide | – | kcat | 23 ± 4 s⁻¹
CSCC[C@H](NC(=O)[C@@H]1CCCN1C(=O)[C@@H]1CCCN1C(=O)[C@H](CCSC)NC(=O)[C@@H]1CCCN1C(=O)[C@@H]1CCCN1C(=O)[C@H](C)NC(=O)[C@H](CO)NC(=O)[C@@H]1CCCN1C(=O)[C@@H](NC(=O)[C@H](CC(C)C)NC(=O)[C@H](CO)NC(=O)CNC(=O)CNC(=O)[C@@H](N)Cc1ccc(O)cc1)C(C)C)C(=O)O | Tumor susceptibility gene 101 protein, UEV domain (Homo sapiens, UniProt Q99816) | thermal stability | – | 800 µM | relative to: free protein, higher = stabilisation | Tm shift | 5.8 °C
CC[C@H](C)[C@H]1O[C@]2(C=C[C@@H]1C)C[C@@H]1C[C@@H](C/C=C(\C)[C@@H](O[C@H]3C[C@H](OC)[C@@H](O[C@H]4C[C@H](OC)[C@@H](O)[C@H](C)O4)[C@H](C)O3)[C@@H](C)/C=C/C=C3\CO[C@@H]4[C@H](O)C(C)=C[C@@H](C(=O)O1)[C@]34O)O2 | Oxysterols receptor LXR-alpha (NR1H3, Homo sapiens, UniProt Q13133) | – | – | 0.4 µM | – | coactivator recruitment efficacy | 2.03 ± 1.62%
CC(C)C[C@H](NC(=O)c1ccccc1N)C(=O)N[C@@H](CCCCN)C(=O)N[C@@H](CCCNC(=N)N)C(=O)N[C@@H](CCCNC(=N)N)C(=O)N[C@@H](CCCNC(=N)N)C(=O)N[C@@H](CCCNC(=N)N)C(=O)N[C@@H](CC(=O)O)C(=O)N[C@H](C(=O)N[C@@H](CCC(N)=O)C(=O)N[C@@H](CCC(N)=O)C(=O)N[C@@H](CCC(N)=O)C(=O)NCCNc1ccc([N+](=O)[O-])cc1[N+](=O)[O-])[C@@H](C)O | FURIN | substrate | – | pH 7 | – | kcat | 3.6 s⁻¹
CC(C)C[C@H](NC(=O)[C@@H](N)C(C)C)C(=O)N[C@@H](CCCNC(=N)N)C(=O)N[C@@H](C)C(=O)N[C@@H](CS)C(=O)N[C@@H](Cc1c[nH]c2ccccc12)C(=O)N[C@@H](CC(N)=O)C(=O)N[C@@H](CCC(=O)O)C(=O)N[C@@H](CCCCN)C(=O)O | HLA class I histocompatibility antigen, A alpha chain allele A*80:01 | – | – | – | direction not given | z-score | 0.38
CC(C)[C@H](NC(=O)[C@H](CCCNC(=N)N)NC(=O)[C@H](C)NC(=O)[C@H](CCCCN)NC(=O)c1ccccc1N)C(=O)N[C@@H](CO)C(=O)N[C@@H](C)C(=O)N[C@@H](CCC(N)=O)C(=O)NCCNc1ccc([N+](=O)[O-])cc1[N+](=O)[O-] | MCA2 | enzyme activity, substrate, FRET hydrolysis | Trypanosoma brucei | pH 7.4 | – | Km | 0.53 µM
CN(CCc1ccccn1)c1ccc2c(c1)C(=O)c1ccccc1-2 | 5-hydroxytryptamine receptor 3A (HTR3A, Homo sapiens, UniProt P46098) | calcium signal | HEK | 10.3 µM, added: 5-HT 1 µM | – | inhibition | 33 ± 4.9%
CC(C)C[C@H](NC(=O)[C@H](Cc1ccccc1)NC(=O)[C@H](CCCNC(=N)N)NC(=O)[C@H](CCCNC(=N)N)NC(=O)[C@H](CCCCN)NC(=O)[C@H](CCCNC(=N)N)NC(=O)[C@H](CCCCN)NC(=O)[C@H](CCCCN)NC(=O)c1ccccc1N)C(=O)NCC(=O)N[C@@H](Cc1ccccc1)C(=O)N[C@@H](CCC(N)=O)C(=O)NCCNc1ccc([N+](=O)[O-])cc1[N+](=O)[O-] | FURIN | substrate | – | pH 7 | – | kcat | 1.1 s⁻¹
CSCC[C@H](NC(=O)[C@@H](N)CC(C)C)C(=O)N[C@@H](CCCNC(=N)N)C(=O)NCC(=O)N[C@H](C(=O)N[C@@H](CCCCN)C(=O)N[C@@H](Cc1c[nH]c2ccccc12)C(=O)N[C@@H](CC(C)C)C(=O)N[C@@H](CCCCN)C(=O)O)C(C)C | HLA class I histocompatibility antigen, A alpha chain allele A*80:01 | – | – | – | direction not given | z-score | 0.249
CC[C@H](C)[C@H](NC(=O)[C@H](CCCNC(=N)N)NC(=O)[C@@H](NC(=O)[C@H](Cc1c[nH]cn1)NC(=O)c1ccccc1N)C(C)C)C(=O)N[C@@H](CO)C(=O)N[C@@H](CCCNC(=N)N)C(=O)N[C@@H](CO)C(=O)N[C@@H](CC(C)C)C(=O)N[C@@H](Cc1c[nH]cn1)C(=O)N[C@@H](CCC(N)=O)C(=O)N[C@@H](CCC(N)=O)C(=O)NCCNc1ccc([N+](=O)[O-])cc1[N+](=O)[O-] | FURIN | substrate | – | pH 7 | – | kcat | 3 s⁻¹
CC(=O)N[C@@H](C)C(=O)N[C@@H](C)C(=O)N[C@@H](Cc1ccc(OP(=O)(O)O)cc1)C(=O)N[C@@H](Cc1c[nH]c2ccccc12)C(=O)N[C@@H](C)C(=O)N[C@@H](Cc1ccc(O)cc1)C(=O)N[C@@H](CC(=O)O)C(=O)N[C@@H](CC(=O)O)C(N)=O | PTPN1 | substrate | – | pH 7.4, catalytic domain | – | kcat | 34 ± 1 s⁻¹
C[C@H](NC(=O)[C@H](CCCCN)NC(=O)c1ccccc1N)C(=O)N[C@@H](CCCNC(=N)N)C(=O)N[C@@H](CO)C(=O)N[C@@H](CO)C(=O)NCC(=O)N[C@@H](CCC(N)=O)C(=O)NCCNc1ccc([N+](=O)[O-])cc1[N+](=O)[O-] | MCA2 | enzyme activity, substrate, FRET hydrolysis | Trypanosoma brucei | pH 7.4 | – | Km | 0.3 µM
CC(C)C[C@H](NC(=O)[C@H](C)NC(=O)[C@H](Cc1ccc(O)cc1)NC(=O)[C@H](CCCNC(=N)N)NC(=O)[C@H](CCCNC(=N)N)NC(=O)[C@H](CCCNC(=N)N)NC(=O)[C@H](CCCNC(=N)N)NC(=O)[C@H](CCCNC(=N)N)NC(=O)[C@@H](NC(=O)c1ccccc1N)C(C)C)C(=O)N[C@@H](CO)C(=O)N[C@@H](CCC(N)=O)C(=O)NCCNc1ccc([N+](=O)[O-])cc1[N+](=O)[O-] | FURIN | substrate | – | pH 7 | – | kcat | 0.84 s⁻¹
C[C@@H](O)[C@H](NC(=O)[C@H](CCC(=O)O)NC(=O)CNC(=O)[C@H](Cc1ccccc1)NC(=O)[C@@H](N)Cc1ccccc1)C(=O)N[C@@H](CO)C(=O)N[C@@H](Cc1c[nH]cn1)C(=O)N[C@@H](CC(N)=O)C(=O)N[C@@H](Cc1ccc(O)cc1)C(=O)O | HLA class I histocompatibility antigen, A alpha chain allele A*80:01 | – | – | – | direction not given | z-score | 0.38
CC(=O)N[C@@H](C)C(=O)N[C@@H](Cc1ccc(O)cc1)C(=O)N[C@H](C(=O)N[C@@H](CCC(=O)O)C(=O)N[C@@H](Cc1ccc(OP(=O)(O)O)cc1)C(=O)N[C@H](C(=O)N[C@@H](Cc1ccc(OP(=O)(O)O)cc1)C(=O)N[C@@H](C)C(=O)N[C@@H](C)C(N)=O)[C@@H](C)O)[C@@H](C)O | PTPN1 | substrate, continuous UV | – | pH 7.4 | – | kcat/Km | 6e+06 M⁻¹ s⁻¹
CC(C)C[C@H](NC(=O)[C@H](CC(N)=O)NC(=O)[C@H](CO)NC(=O)[C@@H](N)Cc1c[nH]cn1)C(=O)N[C@@H](CC(N)=O)C(=O)N[C@@H](CC(=O)O)C(=O)N[C@H](C(=O)N[C@H](C(=O)N[C@@H](Cc1ccc(O)cc1)C(=O)O)[C@@H](C)O)[C@@H](C)O | HLA class I histocompatibility antigen, A alpha chain allele A*80:01 | – | – | – | direction not given | z-score | 0.38
CC(=O)N[C@@H](CCC(=O)O)C(=O)N[C@@H](C)C(=O)N[C@@H](CC(=O)O)C(=O)N[C@H](C(=O)N[C@@H](C)C(=O)N[C@@H](Cc1ccc(OP(=O)(O)O)cc1)C(=O)N[C@@H](C)C(=O)N[C@@H](C)C(N)=O)[C@@H](C)O | Receptor-type tyrosine-protein phosphatase alpha residues 224-802 | phosphatase activity, substrate | – | pH 7.4, added: phosphotyrosine peptide | – | kcat | 26 ± 1 s⁻¹
CC[C@H](C)[C@H](NC(=O)CNC(=O)[C@@H](NC(=O)[C@H](C)NC(=O)[C@H](CCCNC(=N)N)NC(=O)[C@H](CCCCN)NC(=O)[C@H](CCC(=O)O)NC(=O)[C@H](CCCNC(=N)N)NC(=O)[C@H](CCC(N)=O)NC(=O)[C@@H](NC(=O)c1ccccc1N)C(C)C)C(C)C)C(=O)N[C@@H](CCC(N)=O)C(=O)NCCNc1ccc([N+](=O)[O-])cc1[N+](=O)[O-] | FURIN | substrate | – | pH 7 | – | kcat | 3.9 s⁻¹
CC(C)C[C@H](NC(=O)[C@@H]1CCCN1C(=O)[C@H](C)NC(=O)[C@H](C)NC(=O)[C@H](C)NC(=O)[C@@H](N)CC(=O)O)C(=O)N1CCC[C@H]1C(=O)N1CCC[C@H]1C(=O)N[C@H](C(=O)O)C(C)C | HLA class I histocompatibility antigen, A alpha chain, allele A*69:01 (Homo sapiens, UniProt P04439) | – | – | – | direction not given | z-score | -4.33
CC[C@H](C)[C@H](NC(=O)[C@H](CCCCN)NC(=O)c1ccccc1N)C(=O)N[C@@H](CCCNC(=N)N)C(=O)N[C@@H](CO)C(=O)N[C@@H](CO)C(=O)N[C@@H](C)C(=O)N[C@@H](CCC(N)=O)C(=O)NCCNc1ccc([N+](=O)[O-])cc1[N+](=O)[O-] | MCA2 | enzyme activity, substrate, FRET hydrolysis | Trypanosoma brucei | pH 7.4 | – | Km | 0.56 µM
CC[C@H](C)[C@H](N)C(=O)N[C@@H](CCCNC(=N)N)C(=O)N[C@@H](CCSC)C(=O)N[C@@H](Cc1c[nH]c2ccccc12)C(=O)N[C@@H](CC(N)=O)C(=O)N[C@@H](CCC(N)=O)C(=O)N[C@@H](C)C(=O)N[C@@H](C)C(=O)N[C@@H](CC(C)C)C(=O)O | HLA class I histocompatibility antigen, A alpha chain allele A*80:01 | – | – | – | direction not given | z-score | 0.38
C[C@@H](O)[C@H](NC(=O)c1ccccc1N)C(=O)N[C@@H](Cc1c[nH]cn1)C(=O)N[C@@H](CCCNC(=N)N)C(=O)N[C@H](C(=O)N[C@@H](CCCNC(=N)N)C(=O)N[C@@H](CCCNC(=N)N)C(=O)N[C@@H](CO)C(=O)N[C@H](C(=O)N[C@@H](CO)C(=O)N[C@@H](CC(=O)O)C(=O)N[C@@H](CCC(N)=O)C(=O)NCCNc1ccc([N+](=O)[O-])cc1[N+](=O)[O-])[C@@H](C)O)[C@@H](C)O | FURIN | substrate | – | pH 7 | – | kcat | 8.5 s⁻¹
CC(=O)N[C@@H](C)C(=O)N[C@@H](C)C(=O)N[C@@H](C)C(=O)N[C@@H](C)C(=O)N[C@@H](C)C(=O)N[C@@H](Cc1ccc(OP(=O)(O)O)cc1)C(=O)N[C@@H](CCC(=O)O)C(=O)N[C@@H](CCC(=O)O)C(=O)N[C@H](C(=O)N[C@@H](Cc1c[nH]cn1)C(N)=O)C(C)C | PTPN1 | substrate, continuous UV | – | pH 7.4 | – | kcat/Km | 1.1e+06 M⁻¹ s⁻¹

For quick reference, copied from above:
SMILES | target | assay | test system | conditions | scale | quantity | value
CC(C)[C@H](NC(=O)[C@H](CCCNC(=N)N)NC(=O)[C@H](C)NC(=O)[C@H](CCCCN)NC(=O)c1ccccc1N)C(=O)N[C@@H](CO)C(=O)N[C@@H](C)C(=O)N[C@@H](CCC(N)=O)C(=O)NCCNc1ccc([N+](=O)[O-])cc1[N+](=O)[O-] | MCA2 | enzyme activity, substrate, FRET hydrolysis | Trypanosoma brucei | pH 7.4 | – | Km | 0.53 µM
C[C@@H](O)[C@H](NC(=O)c1ccccc1N)C(=O)N[C@@H](Cc1c[nH]cn1)C(=O)N[C@@H](CCCNC(=N)N)C(=O)N[C@H](C(=O)N[C@@H](CCCNC(=N)N)C(=O)N[C@@H](CCCNC(=N)N)C(=O)N[C@@H](CO)C(=O)N[C@H](C(=O)N[C@@H](CO)C(=O)N[C@@H](CC(=O)O)C(=O)N[C@@H](CCC(N)=O)C(=O)NCCNc1ccc([N+](=O)[O-])cc1[N+](=O)[O-])[C@@H](C)O)[C@@H](C)O | FURIN | substrate | – | pH 7 | – | kcat | 8.5 s⁻¹
CC(=O)N[C@@H](C)C(=O)N[C@@H](C)C(=O)N[C@@H](Cc1ccc(OP(=O)(O)O)cc1)C(=O)N[C@@H](Cc1c[nH]c2ccccc12)C(=O)N[C@@H](C)C(=O)N[C@@H](Cc1ccc(O)cc1)C(=O)N[C@@H](CC(=O)O)C(=O)N[C@@H](CC(=O)O)C(N)=O | PTPN1 | substrate | – | pH 7.4, catalytic domain | – | kcat | 34 ± 1 s⁻¹
